Results of several laboratories.
Parts stem from different laboratories: compare values within a part only.

Series 1
Target: Ras GTPase-activating protein-binding protein 1, C-terminal RGG region (G3BP1, Homo sapiens, UniProt Q13283)
Chain of UniProt Q13283 (whole entry, looked up): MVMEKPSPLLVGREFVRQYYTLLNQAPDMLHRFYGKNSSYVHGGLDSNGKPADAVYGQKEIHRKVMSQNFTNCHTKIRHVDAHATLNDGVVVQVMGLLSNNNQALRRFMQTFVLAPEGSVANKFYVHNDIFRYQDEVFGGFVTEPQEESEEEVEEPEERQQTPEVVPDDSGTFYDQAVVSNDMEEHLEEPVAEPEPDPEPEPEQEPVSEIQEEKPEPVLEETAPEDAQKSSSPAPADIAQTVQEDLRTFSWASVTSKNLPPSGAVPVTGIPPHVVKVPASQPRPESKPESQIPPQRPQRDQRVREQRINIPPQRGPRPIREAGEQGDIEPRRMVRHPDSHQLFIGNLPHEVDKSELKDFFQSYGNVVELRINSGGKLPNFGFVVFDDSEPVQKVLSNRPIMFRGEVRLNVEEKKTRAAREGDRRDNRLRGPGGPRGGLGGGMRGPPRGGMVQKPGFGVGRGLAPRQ
Technique: RNA Bind-n-Seq
Form: RNA
Matrix: in vitro
Tested at: 1 µM
Setting: whole 134-nt RNA, ends assumed
With: 150 mM KCl
Relative to: input library
Reading: higher = stronger binding
Sequence | log2 enrichment
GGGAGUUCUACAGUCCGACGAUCUUUGACGCGGUGUGUUACGUGGGGGAGAGAAUAAAACUCCAGCGAGAUCCGGGCCGUGAACGAAAGCAGUGACGGAGGAGCUUGUACCACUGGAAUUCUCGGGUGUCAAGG | 0.238
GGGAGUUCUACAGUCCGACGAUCAGUCCUGUGCUACACAUCGUAUGUACCGAAUCGGGAAAAAAAGGGAAAAAGGGUGGGAAAGUAUUAUGUUACGCCGUUCGGAUCUGCACUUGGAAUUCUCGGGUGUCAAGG | 0.957
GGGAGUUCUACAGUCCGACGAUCUGUGAGACUGAAGAUUAUGGAGAAAAGUUUGAUGAAAAUGAUGUGAUUACAUGUUUUGCUGUAAGUUAAAGCUAACUUUCUAUGUAUAAAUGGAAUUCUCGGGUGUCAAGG | -2.25
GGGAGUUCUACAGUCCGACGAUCAGUCCUGUGCUACACAUCGUAUGUACCGAAUCGGGGCCCCGGGCCCCGGGGCCCCGGGAAAGUAUUAUGUUACGCCGUUCGGAUCUGCACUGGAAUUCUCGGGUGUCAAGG | -0.233
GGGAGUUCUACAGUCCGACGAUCUAAGUUUAGAGGAGGAUCUGAUGGAUAUGGCAGUGGACGUGGAUUUGGGGAUGGCUAUAAUGGGUAUGGAGGAGGACCUGGAGGUGGCAAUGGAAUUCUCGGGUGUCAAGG | 0.704
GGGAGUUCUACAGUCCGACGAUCACCAUGCAGGAGGGCAUCUUUGGGAAGUGGGGCAAGGGGGGGAUAGGGAGGGGGGUAACACUUUGGGAACAGGUGGUCCCAGGUCGUUUCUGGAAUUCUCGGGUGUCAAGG | -1.13
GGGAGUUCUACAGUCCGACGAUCCAAGUCCUGUGCUACACAUCGUAUGUACCGAAUCGGAAAGGUUUUUGGUUUUUGGAAAGUAUUAUGUUACGCCGUUCGGAUCUGCACUUCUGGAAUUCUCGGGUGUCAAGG | -1.86
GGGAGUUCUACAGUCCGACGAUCUGGGAGGUGGAUUUUGUUUAUUUUUAUAGCUCAUUUCCAGGGGUGGGAAUUUUUUUUUAAUAUGUGUCAUGAAUAAAGUUGUUUUUGAAAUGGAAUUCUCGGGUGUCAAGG | 3.54
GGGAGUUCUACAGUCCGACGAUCUUCUAUUUCUUUCCUUAAUGUUUUUUUCUUCCCUACUGUUUUAUCCUCCCUUUGCUUUGGAAGGAUAUUGCUGCAUAUCGAGCUAAAGGAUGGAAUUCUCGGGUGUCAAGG | -0.583
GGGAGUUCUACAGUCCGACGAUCGUCCUGUGCUACACAUCGUAUGUACCGAAUCGGGAAAAAAGGGAAAAAAGGAAAAAAGGAAAGUAUUAUGUUACGCCGUUCGGAUCUGCAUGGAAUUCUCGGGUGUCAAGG | -1.58

Series 2
Target: Histone acetyltransferase KAT6A, both winged helices, GST fusion (KAT6A, Homo sapiens, UniProt Q92794, residues 1-181)
Technique: protein binding microarray
Form: double-stranded DNA, one strand shown
Matrix: in vitro
Tested at: not given
Setting: 8-mer, flanks averaged, mean of 2 arrays, mostly near background
Relative to: not given
Reading: higher = stronger binding
Residues (chain): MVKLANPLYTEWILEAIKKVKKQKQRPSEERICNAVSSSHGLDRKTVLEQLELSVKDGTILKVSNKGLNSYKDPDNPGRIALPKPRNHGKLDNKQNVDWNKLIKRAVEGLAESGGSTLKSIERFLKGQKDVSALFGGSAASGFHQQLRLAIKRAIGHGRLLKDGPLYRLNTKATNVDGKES
Sequence | E-score
TGGTTGAA | -0.211
CCAGCAAG | -0.204
CGCCCATA | 0.0892
CCGTGACC | 0.208
AACCCAGG | -0.14
CTTCTAGA | 0.047
CAGGGTAG | -0.174
GAAATCCC | 0.0406
CACAGGCG | 0.0593
AATTCCTC | -0.0796
GGCTGCAC | -0.00888
AGCCAGTG | -0.141
CCAGACGA | -0.0821
AAAGGGCT | -0.212
AATGGAAT | -0.136
TGATTGCA | -0.173
GCAGCACA | 0.00266
ACCTTAGA | -0.0458
ACTTCCTA | -0.151
CGGATCTC | 0.0815
GGCACGTA | 0.0725
GGAAACAC | 0.114
CTAGAGGA | -0.112
CGAACCAA | -0.022
GGCTTTTA | -0.0187

Series 3
Target: RNA binding protein fox-1 homolog 2, RRM domain, GST-SBP tag (RBFOX2, Homo sapiens, UniProt O43251-10, residues 100-194)
Technique: RNA Bind-n-Seq
Form: RNA
Matrix: in vitro
Tested at: 365 nM
Setting: natural RNA segment, single round, ends assumed
Relative to: no-protein control
Reading: higher = stronger binding
Residues (chain): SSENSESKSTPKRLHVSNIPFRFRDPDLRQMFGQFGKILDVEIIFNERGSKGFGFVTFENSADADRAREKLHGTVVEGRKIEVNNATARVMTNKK
Sequence | RBNS enrichment (R)
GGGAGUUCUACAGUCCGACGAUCGAACCCCCGAAGACGGAACCUCACAGUCUUCCAUGUUCCCUUCUUAACUGUCGUGUGGCUCGUUGCUAAAUCAUGACAAUGGCUGCCUAUCUGCUGCUUCUUAGGUUGCUUGGAAUUCUCGGGUGCCAA | 0.305
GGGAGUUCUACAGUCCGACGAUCUCUUAUGGGCAAGCCACCAUCCCACUCUCGUCUCCCUGAGCUGUCUGGUUCUGCGGACCCAGGAAGGGCCAGGCUGGGGCCCUGCUUGUGUUUAUCCUCGGCUGCUGUCUUGGAAUUCUCGGGUGCCAA | 0.586
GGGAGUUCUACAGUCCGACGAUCUGUACAAUGCCUUUUAAACCUUCCCCUUUUUCCAUACUUCCCAUAGGGCAUUUGUAGAAUUAGUGACCCACUGCAUGUCUGUCCCCAAGGCCGGGAAAAGAGACAGGCAGUGGAAUUCUCGGGUGCCAA | 0.862
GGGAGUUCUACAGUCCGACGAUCGUUCACUGUCCAUAUAUAUGAUUUUACGGAAUUAUGAAUUUUUCUGAUGAGUGUUGUAUAGAUGAUUUGAAUUGAUAAAAGUAUUAGGGAUGAGGUUUGUACUUUCCUGAUGGAAUUCUCGGGUGCCAA | 0.517
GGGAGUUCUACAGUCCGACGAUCUGUUUUCUGCCUUCCCACCUUCUCCCCCAGUGUUCGGAUGAAUGUUCCUGGCUGUCUCUGUUCCCUUGCUGUGGGGCUGUGUCCCUCCUUUGGGAGCAUGUGUGGCUAGGUGGAAUUCUCGGGUGCCAA | 0.853
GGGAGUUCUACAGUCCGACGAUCUGGGCUUUAGUUCCUCUCAUAAAAGGAAGAGAUGUAUUGGAUUAGACUAGAUGAUCACCACUUUCUCUUCUAGUUCUAAUUUUUUUAAUUCUAAUACCUAUAUUUUCAAGUGGAAUUCUCGGGUGCCAA | 0.589
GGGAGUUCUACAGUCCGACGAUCUUCCCUUUGGGUAGCUGUGAUCUGCAGUAAGUCUGGGGAGAACCUGAGUACACCACUACACGUUGGGUAAAAGCAGGUGGGGCCUUUCUGGUUGGAUUAGGCACCCUUCAUGGAAUUCUCGGGUGCCAA | 0.383
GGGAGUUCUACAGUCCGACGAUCUGCUGUUGCACACUGAUUGCUGAGGGUGCAUCAAUUACAAGCAUUGAAUACUCCAUCCCCUUCCCUCCCAGUGAAUGGAAUGAGAAAAGCCUUCUUCCUUUGCUUCAGGCUGGAAUUCUCGGGUGCCAA | 2.18
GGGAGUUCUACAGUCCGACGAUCAAGCUGCUUGUUAACAUGGAAGACUUCUCCACUCUCCCUUAGUGAGAACAAAUACACACUUGACAUGGGAGCAAACUGGUUCUGAACUUUGUGACUGUUUGCUAGUGACGUGGAAUUCUCGGGUGCCAA | 0.467

Series 4
Target: Hepatocyte nuclear factor 3-alpha (Foxa1, Mus musculus, UniProt P35582, residues 1-468, full length assumed)
Chain of UniProt P35582 (whole entry, looked up): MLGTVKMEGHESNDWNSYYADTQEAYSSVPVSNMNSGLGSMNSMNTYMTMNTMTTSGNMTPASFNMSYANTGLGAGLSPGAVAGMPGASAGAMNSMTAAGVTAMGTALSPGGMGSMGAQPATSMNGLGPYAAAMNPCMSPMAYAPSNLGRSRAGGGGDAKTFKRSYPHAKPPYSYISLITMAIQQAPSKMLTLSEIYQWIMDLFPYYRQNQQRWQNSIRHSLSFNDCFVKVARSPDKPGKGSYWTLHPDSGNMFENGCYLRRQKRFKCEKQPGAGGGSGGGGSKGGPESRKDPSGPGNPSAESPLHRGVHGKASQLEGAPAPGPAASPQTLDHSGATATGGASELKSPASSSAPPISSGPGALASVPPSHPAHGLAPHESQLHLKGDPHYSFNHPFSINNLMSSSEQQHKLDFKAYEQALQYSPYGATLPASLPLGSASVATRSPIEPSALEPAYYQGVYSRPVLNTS
Technique: EMSA with sequencing
Form: double-stranded DNA, one strand shown
Matrix: in vitro
Tested at: 10 and 20 nM
Setting: whole designed probe, mean of two concentrations, ends assumed
Relative to: negative control set to 0
Reading: higher = stronger binding
Sequence | normalised bound fraction
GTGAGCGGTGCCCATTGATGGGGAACGTCCTGATGTAGGGGACCATAAACTATGGTGGGTAACTGGCCCTTCAAAATAGCCATCAAATGGCAACACTTGCCTAAACCTTGGAGGGCATTGTAAACAGGGATCTTCTGGGTGTCACCTCAAGAATTTAAGACTTCTAAACAGGGAATATTGATCCCGCCTAAAGGGAAGAATCTTATCAGATGAGAAAAGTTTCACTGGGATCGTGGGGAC | 0.0148 ratio
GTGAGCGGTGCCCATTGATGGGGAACCTGTGCAGAAAAGAGATAGCACAGTAAGACTGAGACTCTTGATACCCACAGAAAGGCTGACCTTTGCCTACAGTCTGCAAACGTCACTGGTAAGTAAACAGCTCCCTACATTGATACAAAACTCTCTAAGTGAAAACAGTGGCTCACTGTGCCTAACGGGTTTATGCTAAAGACCTGTTTTCCTTTCAGGAGTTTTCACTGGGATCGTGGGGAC | 0.2 ratio
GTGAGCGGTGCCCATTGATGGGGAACTTGACCACTCTTCAAGTTCAATGACCACATTAAATCCTGAAGAATATTCATCTTTGCCTTTGGAATCATTTGTCCAGACTTCATCATCATCTAAGTAAACATCACCTTCAGACCCTTACCAGGAGAAAAGGCATGAGCTGGCTGTCTAAAAGGGCCCATCAAATGGGGAGAAATCACCATGTTCTAAAAGGGATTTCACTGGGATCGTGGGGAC | 0.44 ratio
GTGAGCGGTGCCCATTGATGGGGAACAATCCAGCTACCTATCTTCAGTTCCTTGGCCTTCAGCTGGCAGTGAAACAGACACATCAGCTTTAAGACTGGCAGCCAAATAGTTAACGATCTGTAAACATACAATTACGCAAGTAGAGAGTTCCTGTTCAAACAGACTGGATGAAAGCCCTTCCATAAAGAACCCTTTAGGTGATGATGCTAAAATTATTTTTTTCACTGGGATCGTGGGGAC | 0.293 ratio
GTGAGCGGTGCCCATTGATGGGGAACTCTATTCAACAAATTAATTGATGTCTAGAAAAATTAATAAGGAATATTCAAGAAACGGTAACTTTTTAACCTTGCAAGAATATAAAAACAAAGTAAACATCAACGAGAAATTTATTTGTAAATGAGACACCCAGGTGTATTCATTTGCATTTTATTAATGGAAATTTTTTCCTGAAATGACCATGAAACTTGATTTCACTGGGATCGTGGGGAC | 0.335 ratio
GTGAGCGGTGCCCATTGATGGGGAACTTTAGTACTTTAAAATTTTCCAAAGTGCTTTTCCTTGTCTTATTATAACAATTGCCAGCATTTGGTCAGCACTCTAGAGGTTATAAAGTACTTTGTGTACACTGTCTCCTATGACATCACAGCAATGCTGTGGGTTATTATTACTTGACTCATTTTGCAGGCAAGGAAGCTAAGGTTCAGGAATGCTAAATGATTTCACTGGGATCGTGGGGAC | 0.196 ratio

Excerpt of the above (series 3):
Sequence | RBNS enrichment (R)
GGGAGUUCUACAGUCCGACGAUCUGUACAAUGCCUUUUAAACCUUCCCCUUUUUCCAUACUUCCCAUAGGGCAUUUGUAGAAUUAGUGACCCACUGCAUGUCUGUCCCCAAGGCCGGGAAAAGAGACAGGCAGUGGAAUUCUCGGGUGCCAA | 0.862
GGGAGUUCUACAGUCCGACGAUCUCUUAUGGGCAAGCCACCAUCCCACUCUCGUCUCCCUGAGCUGUCUGGUUCUGCGGACCCAGGAAGGGCCAGGCUGGGGCCCUGCUUGUGUUUAUCCUCGGCUGCUGUCUUGGAAUUCUCGGGUGCCAA | 0.586
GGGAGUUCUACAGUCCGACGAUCGUUCACUGUCCAUAUAUAUGAUUUUACGGAAUUAUGAAUUUUUCUGAUGAGUGUUGUAUAGAUGAUUUGAAUUGAUAAAAGUAUUAGGGAUGAGGUUUGUACUUUCCUGAUGGAAUUCUCGGGUGCCAA | 0.517
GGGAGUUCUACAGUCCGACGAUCGAACCCCCGAAGACGGAACCUCACAGUCUUCCAUGUUCCCUUCUUAACUGUCGUGUGGCUCGUUGCUAAAUCAUGACAAUGGCUGCCUAUCUGCUGCUUCUUAGGUUGCUUGGAAUUCUCGGGUGCCAA | 0.305
